# Results gathered from unrelated publications.
# Compare with care: the assays were run in different laboratories. Values joined by “and” are separate records of one study, mostly repeats; a detail may differ. Numbers after ± are the reported error.
# Nuclear receptor subfamily 2 group C member 2 ligand-binding domain: Nuclear receptor subfamily 2 group C member 2, ligand-binding domain (Homo sapiens, UniProt P49116)
# UniProt Q16774, sequence (whole entry, unmodified, looked up): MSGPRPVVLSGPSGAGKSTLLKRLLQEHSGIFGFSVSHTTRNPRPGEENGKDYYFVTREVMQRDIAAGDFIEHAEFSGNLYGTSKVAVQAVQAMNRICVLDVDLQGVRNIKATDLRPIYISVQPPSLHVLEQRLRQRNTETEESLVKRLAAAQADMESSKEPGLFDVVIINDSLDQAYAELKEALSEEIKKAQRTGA
# UniProt P51575, sequence (whole entry, unmodified, looked up): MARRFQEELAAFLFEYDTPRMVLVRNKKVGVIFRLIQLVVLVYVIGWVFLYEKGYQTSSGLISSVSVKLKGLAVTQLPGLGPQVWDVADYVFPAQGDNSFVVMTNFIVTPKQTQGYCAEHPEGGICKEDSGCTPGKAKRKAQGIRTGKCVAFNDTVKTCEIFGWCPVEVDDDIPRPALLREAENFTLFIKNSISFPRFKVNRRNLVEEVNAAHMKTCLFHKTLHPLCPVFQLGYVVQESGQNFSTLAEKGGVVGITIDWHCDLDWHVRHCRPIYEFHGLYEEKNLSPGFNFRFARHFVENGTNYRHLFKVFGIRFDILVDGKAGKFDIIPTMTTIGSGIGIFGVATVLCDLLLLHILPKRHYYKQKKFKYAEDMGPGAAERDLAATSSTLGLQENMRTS
# UniProt O14980, sequence (whole entry, looked up): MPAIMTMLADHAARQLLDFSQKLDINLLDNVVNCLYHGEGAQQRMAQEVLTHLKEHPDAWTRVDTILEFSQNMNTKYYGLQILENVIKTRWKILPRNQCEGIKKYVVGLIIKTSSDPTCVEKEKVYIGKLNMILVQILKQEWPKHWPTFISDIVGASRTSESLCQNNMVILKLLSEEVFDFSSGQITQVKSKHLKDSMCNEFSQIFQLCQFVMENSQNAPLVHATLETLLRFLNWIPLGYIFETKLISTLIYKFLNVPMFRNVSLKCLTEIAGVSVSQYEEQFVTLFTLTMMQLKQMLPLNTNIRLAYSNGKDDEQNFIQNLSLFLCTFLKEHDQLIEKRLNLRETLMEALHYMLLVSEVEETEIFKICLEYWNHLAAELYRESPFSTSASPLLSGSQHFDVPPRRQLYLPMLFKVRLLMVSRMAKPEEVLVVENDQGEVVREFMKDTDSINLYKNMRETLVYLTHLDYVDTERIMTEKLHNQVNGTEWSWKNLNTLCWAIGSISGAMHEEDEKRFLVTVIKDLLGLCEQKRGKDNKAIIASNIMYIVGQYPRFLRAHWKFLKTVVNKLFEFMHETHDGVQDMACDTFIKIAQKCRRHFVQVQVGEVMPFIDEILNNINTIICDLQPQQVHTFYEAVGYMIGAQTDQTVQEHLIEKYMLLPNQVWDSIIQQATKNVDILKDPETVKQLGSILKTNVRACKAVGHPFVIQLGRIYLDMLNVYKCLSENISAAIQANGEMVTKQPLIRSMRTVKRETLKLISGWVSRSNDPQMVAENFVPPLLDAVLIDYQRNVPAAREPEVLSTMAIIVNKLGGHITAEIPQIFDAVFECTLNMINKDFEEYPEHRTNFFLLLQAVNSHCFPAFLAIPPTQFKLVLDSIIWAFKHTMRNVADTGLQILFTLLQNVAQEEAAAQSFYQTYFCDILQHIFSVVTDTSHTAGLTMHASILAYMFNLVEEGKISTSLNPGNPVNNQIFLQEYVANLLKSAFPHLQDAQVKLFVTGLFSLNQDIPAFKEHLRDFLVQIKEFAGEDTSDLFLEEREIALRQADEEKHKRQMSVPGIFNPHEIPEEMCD
# UniProt P49116, sequence (whole entry, looked up): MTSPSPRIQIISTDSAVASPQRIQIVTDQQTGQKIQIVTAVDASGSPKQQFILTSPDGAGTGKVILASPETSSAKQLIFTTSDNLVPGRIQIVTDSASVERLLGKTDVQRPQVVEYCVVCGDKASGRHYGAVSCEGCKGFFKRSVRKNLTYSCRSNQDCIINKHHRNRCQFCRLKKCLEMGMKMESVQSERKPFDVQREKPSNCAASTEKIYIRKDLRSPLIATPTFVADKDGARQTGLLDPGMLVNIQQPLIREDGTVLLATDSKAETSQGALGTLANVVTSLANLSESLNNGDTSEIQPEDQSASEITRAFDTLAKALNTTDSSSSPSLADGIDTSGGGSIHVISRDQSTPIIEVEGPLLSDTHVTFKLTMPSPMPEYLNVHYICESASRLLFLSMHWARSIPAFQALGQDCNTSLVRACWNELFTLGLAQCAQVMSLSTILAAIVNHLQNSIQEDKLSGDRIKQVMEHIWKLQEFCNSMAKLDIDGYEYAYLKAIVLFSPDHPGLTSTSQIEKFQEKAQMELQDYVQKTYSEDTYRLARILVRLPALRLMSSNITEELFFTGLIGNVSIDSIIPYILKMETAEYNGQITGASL
# UniProt P04746, sequence (whole entry, looked up): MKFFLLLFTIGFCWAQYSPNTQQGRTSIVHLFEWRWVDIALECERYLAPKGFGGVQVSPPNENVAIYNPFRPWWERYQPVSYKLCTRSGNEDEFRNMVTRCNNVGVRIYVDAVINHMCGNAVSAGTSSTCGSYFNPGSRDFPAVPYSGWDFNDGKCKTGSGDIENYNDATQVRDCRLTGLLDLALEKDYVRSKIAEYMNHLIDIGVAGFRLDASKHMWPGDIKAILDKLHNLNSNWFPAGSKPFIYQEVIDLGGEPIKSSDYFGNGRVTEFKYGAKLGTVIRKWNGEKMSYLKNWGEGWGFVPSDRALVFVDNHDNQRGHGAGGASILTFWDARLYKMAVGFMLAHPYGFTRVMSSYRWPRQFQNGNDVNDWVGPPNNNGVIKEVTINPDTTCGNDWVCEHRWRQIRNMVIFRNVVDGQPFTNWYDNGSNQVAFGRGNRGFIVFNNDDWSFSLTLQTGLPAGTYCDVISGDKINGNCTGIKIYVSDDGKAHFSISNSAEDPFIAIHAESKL
# UniProt O75925, sequence (whole entry, looked up): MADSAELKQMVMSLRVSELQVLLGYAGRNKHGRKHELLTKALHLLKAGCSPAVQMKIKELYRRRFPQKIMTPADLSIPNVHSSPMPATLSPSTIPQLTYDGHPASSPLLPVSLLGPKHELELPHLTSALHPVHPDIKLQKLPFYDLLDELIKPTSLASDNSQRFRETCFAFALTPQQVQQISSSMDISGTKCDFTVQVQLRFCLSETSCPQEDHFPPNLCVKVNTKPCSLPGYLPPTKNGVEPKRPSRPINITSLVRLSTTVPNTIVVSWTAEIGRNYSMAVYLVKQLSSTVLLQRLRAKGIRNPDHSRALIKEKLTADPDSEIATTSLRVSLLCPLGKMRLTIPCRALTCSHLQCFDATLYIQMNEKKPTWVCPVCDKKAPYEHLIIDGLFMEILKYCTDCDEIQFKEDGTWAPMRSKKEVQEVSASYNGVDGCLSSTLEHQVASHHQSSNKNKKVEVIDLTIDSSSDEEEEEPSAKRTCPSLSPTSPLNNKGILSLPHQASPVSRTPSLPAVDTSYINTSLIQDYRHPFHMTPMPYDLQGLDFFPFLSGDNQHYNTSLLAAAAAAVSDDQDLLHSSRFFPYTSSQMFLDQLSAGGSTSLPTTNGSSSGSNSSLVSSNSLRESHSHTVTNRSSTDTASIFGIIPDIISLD
# UniProt Q99814, sequence (whole entry, unmodified, looked up): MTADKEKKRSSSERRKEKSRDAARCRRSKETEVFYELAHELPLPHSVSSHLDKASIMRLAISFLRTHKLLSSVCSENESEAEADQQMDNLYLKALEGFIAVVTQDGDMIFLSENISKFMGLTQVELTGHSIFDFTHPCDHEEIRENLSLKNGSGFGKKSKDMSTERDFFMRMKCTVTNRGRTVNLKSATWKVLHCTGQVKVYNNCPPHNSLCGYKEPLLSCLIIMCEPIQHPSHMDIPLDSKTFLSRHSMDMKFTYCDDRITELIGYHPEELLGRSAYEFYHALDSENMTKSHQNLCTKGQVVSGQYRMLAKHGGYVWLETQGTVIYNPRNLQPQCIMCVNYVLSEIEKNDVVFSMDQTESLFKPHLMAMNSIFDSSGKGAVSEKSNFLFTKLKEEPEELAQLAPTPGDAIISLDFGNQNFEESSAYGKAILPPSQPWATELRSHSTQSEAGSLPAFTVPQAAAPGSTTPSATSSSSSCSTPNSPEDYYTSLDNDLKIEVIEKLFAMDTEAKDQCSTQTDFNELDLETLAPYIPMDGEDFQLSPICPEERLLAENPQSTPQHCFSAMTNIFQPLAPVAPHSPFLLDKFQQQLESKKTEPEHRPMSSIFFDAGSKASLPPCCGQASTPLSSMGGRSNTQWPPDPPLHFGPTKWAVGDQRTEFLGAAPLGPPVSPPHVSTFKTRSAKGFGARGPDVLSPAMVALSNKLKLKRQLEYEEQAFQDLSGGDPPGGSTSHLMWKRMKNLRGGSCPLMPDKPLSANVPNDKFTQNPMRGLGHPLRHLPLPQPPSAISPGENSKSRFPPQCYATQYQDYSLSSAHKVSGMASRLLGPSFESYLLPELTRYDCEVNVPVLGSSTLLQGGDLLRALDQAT
# UniProt Q04206, sequence (whole entry, looked up): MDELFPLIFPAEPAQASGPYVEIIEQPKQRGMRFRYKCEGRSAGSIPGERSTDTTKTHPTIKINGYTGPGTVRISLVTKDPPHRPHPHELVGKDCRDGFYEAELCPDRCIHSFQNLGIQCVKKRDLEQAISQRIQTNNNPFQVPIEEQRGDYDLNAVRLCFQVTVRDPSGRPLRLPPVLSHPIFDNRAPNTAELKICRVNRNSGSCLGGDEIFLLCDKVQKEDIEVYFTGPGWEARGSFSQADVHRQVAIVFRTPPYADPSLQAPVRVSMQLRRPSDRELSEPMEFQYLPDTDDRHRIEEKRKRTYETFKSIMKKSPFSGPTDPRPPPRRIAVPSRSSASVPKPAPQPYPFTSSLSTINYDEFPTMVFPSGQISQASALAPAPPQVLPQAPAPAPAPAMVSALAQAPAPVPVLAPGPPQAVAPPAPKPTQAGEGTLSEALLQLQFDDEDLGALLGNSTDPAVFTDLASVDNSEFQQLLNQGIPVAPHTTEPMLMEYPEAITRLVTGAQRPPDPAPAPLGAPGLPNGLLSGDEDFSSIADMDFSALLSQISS
SMILES,target or system,test,system,conditions,how to read,endpoint,result
CC(=O)N[C@@H](CCCNC(=N)N)C(=O)N[C@H](C(=O)N[C@@H](CCCNC(=N)N)C(=O)N[C@@H](CCCNC(=N)N)C(=O)N[C@@H](CSSC(C)(C)C)C(=O)N[C@@H](CCCCNC(=O)c1ccc(F)cc1)C(=O)Nc1ccc2nc(C#N)sc2c1)C(C)C,"Furin (FURIN, Homo sapiens, UniProt P09958)","cleavage, substrate, HPLC",,"15 min, 37 °C",,Vmax,0.192 nmol/min/unit
Clc1ccc(CCC(Cn2ccnc2)Sc2c(Cl)cccc2Cl)cc1 (stereo not shown),Nuclear receptor subfamily 2 group C member 2 ligand-binding domain,SPR imaging,,600 nM,,koff,8.43e-08 s⁻¹
COC(=O)c1ccc(N2CCN(C)CC2)c(NC(=O)c2cccc(OC)c2)c1,OCI-Ly1,,,"0.5 µM, 120 h",,viability,160%
O=[N+]([O-])c1cc(C(F)(F)F)ccc1NCc1ccco1,"Endothelial PAS domain-containing protein 1, PAS-B domain (EPAS1, Homo sapiens, UniProt Q99814, N288A)","binding, ITC, reverse mode",,,,ΔG,-8.29 ± 0.17 kcal/mol
CC1(C)CC2(C)OC(=O)NC2(C)c2ccccc21 (stereo not shown),"Coatomer subunit beta', WD repeat domain (Homo sapiens, UniProt P35606)","binding, affinity selection mass spectrometry",,,relative to: other proteins in batch,fold enrichment,0.729
CC[C@@H]1[C@H](F)C(=O)N[C@@H]1COc1nccc2cc(C(N)=O)c(OC)cc12,"Dual specificity mitogen-activated protein kinase kinase 1 (MAP2K1, Homo sapiens, UniProt Q02750)","ATP-site probe binding, ActivX profiling",THP-1 cell lysate,"0.2 mM, Lys2 site",,inhibition,3.9%
O=C1OC(c2ccccc2)=N/C1=C\c1ccccc1O,"Pancreatic alpha-amylase (Homo sapiens, UniProt P04746)","inhibitor, Lineweaver-Burk",,"100 ppm, together with: starch substrate",,Km,1350 µM
CN1CC[C@H](c2c(O)cc(O)c3c(=O)cc(-c4ccccc4Cl)oc23)[C@H](O)C1,COS-7,,,"100 µM, 24 h, 0.1% DMSO, unit not given",relative to: control,apoptosis,0.76 ± 0.15
O=P(O)(O)O[C@H]1[C@H](OP(=O)(O)O)[C@@H](OP(=O)(O)O)[C@H](OP(=O)(O)O)[C@@H](OP(=O)(O)O)[C@H]1OP(=O)(O)O,"Beta-arrestin-1 (Arrb1, Rattus norvegicus, UniProt P29066)","oligomeric state, SEC-MALS",,"500 µM, 30 min, 4 °C, 100 µM protein injected",,molecular mass,90.4 kDa
O=C(/C=C\n1cnc(-c2cc(C(F)(F)F)cc(C(F)(F)F)c2)n1)NNc1cnccn1,"Exportin-1 (XPO1, Homo sapiens, UniProt O14980)","nuclear export, high content imaging",HeLa Kyoto reporter,"1 µM, 2 h",,cells with nuclear reporter,96.8% and 97.1%
Nc1nc2c(ncn2[C@@H]2O[C@H](COP(=O)(O)O)[C@@H](O)[C@H]2O)c(=O)[nH]1,"GUK1 (Homo sapiens, UniProt Q16774, R148A)","enzyme activity, NADH-coupled",,1000 µM,,reaction rate,1.05 s⁻¹ and 0.738 s⁻¹ and 0.608 s⁻¹
Nc1ncnc2c1ncn2[C@@H]1O[C@H](COP(=O)(O)CP(=O)(O)OP(=O)(O)O)[C@@H](O)[C@H]1O,"P2X purinoceptor 1 (P2RX1, Homo sapiens, UniProt P51575, D170A)",calcium influx,,1 µM,relative to: ionomycin response,calcium influx,1.53% and 1.17% and 1.1% and 1.26%
Nc1ncnc2c1ncn2[C@@H]1O[C@H](COP(=O)(O)OP(=O)(O)O)[C@@H](O)[C@H]1O,"Cell cycle histidine kinase CckA, CA domain (Caulobacter vibrioides, UniProt Q9X688)","binding, ITC",,"25 °C, together with: without c-di-GMP",,-TΔS,0.8 kcal/mol
CCOC(=O)CCNc1cc(N2CCc3ccccc3CC2)nc(-c2cccnc2)n1,OCI-Ly1,,,"0.1 µM, 120 h",,viability,93.6%
Nc1ncnc2c1ncn2[C@@H]1O[C@H](COP(=O)(O)OP(=O)(O)OP(=O)(O)O)[C@@H](O)[C@H]1O,"ATP-sensitive inward rectifier potassium channel 1 (Rattus norvegicus, UniProt P35560)",inside-out patch clamp,"renal principal cells, rat",together with: 20 µM free Mg2+,,concentration for full channel block,3 to 3.5 mM
COCCC(=O)N1CCC(Oc2ccccc2)C1 (stereo not shown),"E3 SUMO-protein ligase PIAS1 (PIAS1, Homo sapiens, UniProt O75925)","binding, affinity selection mass spectrometry",,,relative to: other proteins in batch,log fold enrichment,0.0516
O=Cc1ccc([N+](=O)[O-])c(O)c1,"YWHAG/RELA, phospho-Ser45 p65 peptide (Homo sapiens, UniProt P61981+Q04206)","ternary complex formation, stabilizer, fluorescence anisotropy",,,,EC50,> 1000 µM
COc1ccc2cc(CCC(C)=O)ccc2c1,Nuclear receptor subfamily 2 group C member 2 ligand-binding domain,SPR imaging,,600 nM,,koff,9.34e-08 s⁻¹
Clc1cncc(OC[C@H]2CN(CCN3CCc4ccccc43)CCO2)c1,"5-hydroxytryptamine receptor 4 (HTR4, Homo sapiens, UniProt Q13639)",radioligand binding,,concentration not given,,inhibition,26%

# Excerpt of the above:
SMILES,target or system,test,system,conditions,how to read,endpoint,result
COCCC(=O)N1CCC(Oc2ccccc2)C1 (stereo not shown),"E3 SUMO-protein ligase PIAS1 (PIAS1, Homo sapiens, UniProt O75925)","binding, affinity selection mass spectrometry",,,relative to: other proteins in batch,log fold enrichment,0.0516
Nc1nc2c(ncn2[C@@H]2O[C@H](COP(=O)(O)O)[C@@H](O)[C@H]2O)c(=O)[nH]1,"GUK1 (Homo sapiens, UniProt Q16774, R148A)","enzyme activity, NADH-coupled",,1000 µM,,reaction rate,1.05 s⁻¹ and 0.738 s⁻¹ and 0.608 s⁻¹
